Published values from different studies.
Parts stem from different laboratories: compare values within a part only. Changes are numbered by the printed parent chain.

Block 1
Sequence: B1 (TRIM48 RING domain)
Method: yeast two-hybrid
Sample: yeast
Setting: mostly zero background
Reference: not given
Reading: higher = stronger interaction
Quantity: lacZ reporter activity
B1: TRIM48 RING domain (UniProt Q8IWZ4); chain ISQVFQRELTCPICMNYFIDPVTIDCGHSFCRPCFYLNWQDIPILTQCFECIKTIQQRNLKT
target = UBE2O UBC core domain (UniProt Q9C0C9); result = 0
target = UBE2E3 UBC core domain (UniProt Q969T4); result = 0
target = UBE2J2 UBC core domain (UniProt Q8N2K1); result = 0
target = UBE2D1 UBC core domain (UniProt P51668); result = 0
target = UBE2T UBC core domain (UniProt Q9NPD8); result = 0
target = UBE2I UBC core domain (UniProt P63279); result = 0
target = UBE2S UBC core domain (UniProt Q16763); result = 0
target = UBE2Z UBC core domain (UniProt Q9H832); result = 0
target = UBE2C UBC core domain (UniProt O00762); result = 0
target = UBE2Q1 UBC core domain (UniProt Q7Z7E8); result = 0
target = UBE2M UBC core domain (UniProt P61081); result = 0
target = UBE2R2 UBC core domain (UniProt Q712K3); result = 0
target = UBE2J1 UBC core domain (UniProt Q9Y385); result = 0
target = UBE2B UBC core domain (UniProt P63146); result = 0

Block 2
Target: Centromere-binding protein 1, full length, His-tagged (CBF1, Saccharomyces cerevisiae, UniProt P17106, residues 1-351)
Method: competition protein-binding microarray
Form: double-stranded DNA, one strand shown
Sample: in vitro
Concentration: 2 µM
Setting: whole 60-bp probe, lowest competitor level
Together with: Pho4 competitor, 0.05 µM
Reading: higher = stronger binding
Quantity: fluorescence intensity
Constant ends, left off below: … GTCTTGATTCGCTTGACGCTGCTG
Strand = TGCGCAACAACTTGCAGTGTGGGTGTATGTCTAGAA; result = 67.2 a.u.
Strand = TGAGCGCTGAAGAAACACATGACGACTTGAAAAAAG; result = 406 a.u.
Strand = GTCCCAAGCAGCTTCATCGTGATGGTCTCCTTCAGG; result = 65.8 a.u.
Strand = CATACCCAACCTTCACACGTGTTTTAAGATATTTGT; result = 1190 a.u.
Strand = TCGGAAATTACATGGTGCGTGCTGTGGCTTTTTGTG; result = 84 a.u.
Strand = CTTCTGTAAATTTGTCACCTGACTTGACGCGCCCCG; result = 1600 a.u.
Strand = TCTAGTGATACCCATCACGTGCCAGTGATACTTGCG; result = 6440 a.u.
Strand = AAATTACTAAGTTTTCACGTGATATACCCCGTATGA; result = 4390 a.u.
Strand = CTTTCCCGATCTTGCGTTGTGGGTGTAGCACATTTG; result = 68.9 a.u.
Strand = GGACATAACATCGGACTTGTGACGGACGAATCTTTG; result = 80.3 a.u.
Strand = ATAGAAGTTTTTTTATCCTCTCTTTGTTTCCATTAT; result = 89.6 a.u.
Strand = AAATTACTAAGTTGCAGTGTGGGTGACGCCGTATGA; result = 69.8 a.u.
Strand = ACACCATATGGTGCACCCGTGCTGTTTGTCACTGCC; result = 101 a.u.
Strand = AAAGCGGTAATTTGGCGGGTGGGTGCAGATATCTAT; result = 74.1 a.u.
Strand = AACCTACATCTTCACATCGTGGCCGAATTGAAGCTA; result = 62.4 a.u.
Strand = GCGCCGGGCGCTGGCCACGTGCAGGTAGGAGCGCGG; result = 935 a.u.
Strand = TTCAGAAGGTGGAGACACATGAAATTGACAGGTCTT; result = 84.5 a.u.
Strand = TGATGACCAAGTTGCCACGTGTCCTCTAGTGGCAGG; result = 1350 a.u.
Strand = CTTCTGTAAATTTTTCACGTGTGCTGACGCGCCCCG; result = 671 a.u.
Strand = CTTCTGTAAATTTGGTTGGTGGGTGGACGCGCCCCG; result = 85.3 a.u.
Strand = AGTTGGTACCTTTTCACCGTGAGTATCGAACTTGAA; result = 78 a.u.

Block 3
Target: CCND1, cyclin fold, Cln2 fusion (human)
Method: yeast growth competition, sequencing
Sample: yeast
Setting: strong parent motif
Reference: not given
Reading: higher = stronger binding
Quantity: normalised enrichment score
Starting sequence: RBL1 docking peptide (human); GSAKRRLFGEDPP; partner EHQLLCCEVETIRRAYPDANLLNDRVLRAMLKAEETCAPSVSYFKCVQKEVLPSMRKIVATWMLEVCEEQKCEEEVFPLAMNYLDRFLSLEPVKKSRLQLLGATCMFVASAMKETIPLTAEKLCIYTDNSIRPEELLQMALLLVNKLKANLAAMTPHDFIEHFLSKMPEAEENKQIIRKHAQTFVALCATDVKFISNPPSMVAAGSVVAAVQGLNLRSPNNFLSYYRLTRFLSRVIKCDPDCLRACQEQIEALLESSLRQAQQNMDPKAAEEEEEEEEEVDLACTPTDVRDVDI
Substitution = LSAKRRLFGEDPP [G1L]; result = 2.46
Substitution = GSAKRRLFGEDPD [P13D]; result = 2.7
Substitution = GSLKRRLFGEDPP [A3L]; result = 0.0925
Substitution = GSAKRRLFGETPP [D11T]; result = 1.6
Substitution = GSARRRLFGEDPP [K4R]; result = 2.28
Substitution = GWAKRRLFGEDPP [S2W]; result = -0.199
Substitution = DSAKRRLFGEDPP [G1D]; result = 1.3
Substitution = GSAKRRLLGEDPP [F8L]; result = 0.381
Substitution = GSAKRRFFGEDPP [L7F]; result = 0.11
Substitution = GSAKRRLFGEDEP [P12E]; result = 3.18
Substitution = GSAKRRLFGEDSP [P12S]; result = 2.99
Substitution = GSAKRRLFGTDPP [E10T]; result = 0.883
Substitution = GSAFRRLFGEDPP [K4F]; result = 0.727
Substitution = GSAKRRLFGECPP [D11C]; result = 1.15
Substitution = GSVKRRLFGEDPP [A3V]; result = 1.19
Substitution = SSAKRRLFGEDPP [G1S]; result = 2.55
Substitution = GSAKRRLFGERPP [D11R]; result = 0.154

Block 4
Target: Prothrombin, mature alpha-thrombin (F2, Homo sapiens, UniProt P00734)
Method: aptamer microarray, sandwich
Form: DNA with 2'F-ANA
Sample: in vitro
Concentration: 200 nM
Setting: whole 15-mer aptamer, many near background
Together with: Cy3 exosite-II aptamer, 400 nM
Reading: higher = stronger binding
Quantity: mean fluorescence intensity
Strand: GGTTGGTGTGGTTGG
Modification = 2'F-ANA at 1 4 5 6 7 9 10 12 15; result = 54.8 a.u.
Modification = 2'F-ANA at 2 3 6 7 9 10 11 13 14 15; result = 219 a.u.
Modification = 2'F-ANA at 1 3 5 6 7 8 10 12 13; result = 48.1 a.u.
Modification = 2'F-ANA at 2 3 5 7 8 10 12 14; result = 57.1 a.u.
Modification = 2'F-ANA at 2 5 6 8 11 12 13; result = 109 a.u.
Modification = 2'F-ANA at 1 3 7 8 10 12 15; result = 123 a.u.
Modification = 2'F-ANA at 1 2 5 7 8 9 10 11 12 13 15; result = 56.1 a.u.
Modification = 2'F-ANA at 3 5 11 14 15; result = 54.5 a.u.
Modification = 2'F-ANA at 1 2 3 6 8 9 11 12 13 14; result = 75.5 a.u.
Modification = 2'F-ANA at 1 3 5 7 8 12; result = 140 a.u.
Modification = 2'F-ANA at 1 5 7 8 9 11 12; result = 103 a.u.
Modification = 2'F-ANA at 3 6 10 11 14; result = 371 a.u.
Modification = 2'F-ANA at 3 4 7 8 9 11 12 13 14; result = 340 a.u.
Modification = 2'F-ANA at 1 2 3 5 6 7 8 9 10 12 13 15; result = 55.2 a.u.
Modification = 2'F-ANA at 1 4 9 11 13; result = 76.1 a.u.
Modification = 2'F-ANA at 1 2 4 5 12 14 15; result = 48.3 a.u.
Modification = 2'F-ANA at 1 2 4 7 9 12 15; result = 284 a.u.
Modification = 2'F-ANA at 1 3 7 8 10 11 12 14; result = 65 a.u.
Modification = 2'F-ANA at 2 8 10 15; result = 137 a.u.
Modification = 2'F-ANA at 1 5 6 9 10 13 14; result = 45.2 a.u.
Modification = 2'F-ANA at 1 2 3 7 13 14; result = 71.8 a.u.
Modification = 2'F-ANA at 2 3 5 11 15; result = 80.7 a.u.
Modification = 2'F-ANA at 2 3 5 6 7 9 10 14; result = 48.9 a.u.

Block 5
Target: ABI1, truncated, D143A, DHFR fusion (Arabidopsis thaliana)
Method: DHFR PCA, deep sequencing
Sample: yeast
Setting: methotrexate growth selection, single substitutions
Together with: (+)-ABA 0.39 µM
Reference: wild-type fitted maximum
Reading: higher = stronger binding
Quantity: relative binding score
Starting sequence: PYL1, truncated, DHFR fusion (Arabidopsis thaliana); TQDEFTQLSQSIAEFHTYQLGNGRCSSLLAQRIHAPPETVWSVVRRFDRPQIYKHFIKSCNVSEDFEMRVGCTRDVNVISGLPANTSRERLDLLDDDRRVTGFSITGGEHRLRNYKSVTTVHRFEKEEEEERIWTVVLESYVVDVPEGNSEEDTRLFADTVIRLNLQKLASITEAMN; partner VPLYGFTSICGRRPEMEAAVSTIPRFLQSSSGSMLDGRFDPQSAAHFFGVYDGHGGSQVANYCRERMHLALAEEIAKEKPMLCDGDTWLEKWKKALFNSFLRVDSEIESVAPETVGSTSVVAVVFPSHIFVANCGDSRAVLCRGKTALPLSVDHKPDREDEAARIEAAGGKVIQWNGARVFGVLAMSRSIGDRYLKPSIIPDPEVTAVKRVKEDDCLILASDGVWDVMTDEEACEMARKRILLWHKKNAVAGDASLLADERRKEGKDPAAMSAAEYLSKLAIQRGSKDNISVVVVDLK
Substitution = A13F; result = 9.2%
Substitution = V100F; result = -2.03%
Substitution = E4V; result = 51.2%
Substitution = G108I; result = -7.82%
Substitution = T154M; result = 4.21%
Substitution = G21C; result = 31.1%
Substitution = G148E; result = -13.2%
Substitution = F157C; result = 10.9%
Substitution = H16M; result = 1.67%
Substitution = T86S; result = 52.7%
Substitution = Q10G; result = 50.2%
Substitution = T119H; result = -7.19%

Some of these lines once more (block 4):
Modification = 2'F-ANA at 2 3 5 7 8 10 12 14; result = 57.1 a.u.
Modification = 2'F-ANA at 2 5 6 8 11 12 13; result = 109 a.u.
Modification = 2'F-ANA at 1 3 7 8 10 12 15; result = 123 a.u.
Modification = 2'F-ANA at 1 2 5 7 8 9 10 11 12 13 15; result = 56.1 a.u.
Modification = 2'F-ANA at 3 5 11 14 15; result = 54.5 a.u.
Modification = 2'F-ANA at 1 2 3 6 8 9 11 12 13 14; result = 75.5 a.u.
Modification = 2'F-ANA at 1 3 5 7 8 12; result = 140 a.u.
Modification = 2'F-ANA at 1 5 7 8 9 11 12; result = 103 a.u.
Modification = 2'F-ANA at 3 6 10 11 14; result = 371 a.u.
Modification = 2'F-ANA at 3 4 7 8 9 11 12 13 14; result = 340 a.u.
Modification = 2'F-ANA at 1 2 3 5 6 7 8 9 10 12 13 15; result = 55.2 a.u.
Modification = 2'F-ANA at 1 4 9 11 13; result = 76.1 a.u.
